# Measured values from different studies.
# Lines come from different studies, so protocols differ. “And” joins repeats or separate records; there may be more than shown. ± marks the error that the study gave.
# B1: SCO6712 S292F (Streptomyces coelicolor, UniProt Q9XAL8); chain AKGITARTAPAGGEVRHLKMYAEKLADGQMGYGFEKGKASVPGPLIEVNEGDTLHIEFTNTMDVRASLHVHGLDYEISSDGTAMNKSDVEPGGTRTYTWRTHKPGRRDDGTWRPGSAGYWHYHDHVVGTEHGTGGIRNGLYGPVIVRRKGDVLPDATHTIVFNDMTINNRKPHTGPDFEATVGDRVEIVMITHGEYYHTFHMHGHRWADNRTGILTGPDDPSRVIDNKITGPADSFGFQIIAGEGVGAGAWMYHCHVQFHSDMGMVGLFLVKKPDGTIPGYEPHEHGGATAKSGESGEPTGGAAAHEHEH
# B2: enzyme E64A (Nitrosopumilus maritimus, UniProt A9A5X4); chain MDSQKFDSIIFDCDGVLVDITQSYDKTIDKTCRYVLKEFAKIDSITIDHKIIDGFKSSGGFNDAVDLVYAAILSLYTANKLNKKPSEFIYDVISNTDKTGIRSVQSYLESIYDVSEFLSKLGSLGDRHNNPVYSIFDQFFFGPELYGKLFDKQSKFSEEGMISNDKVILSVSLLETLQKEFGKKIAVVTGRGIESIRYSLKDMMDYFDTKNSAFLEDEPRELAKPNPATLIRAIQSMESKNCLYVGDSMEDYMMAKDAAQAGHSTTFCAIVGTSTNPEDRRKLFADSGVEMILESINDIPKVLNLV
# B3: valA (Streptomyces hygroscopicus, UniProt H2K887); chain MTMTKQSSLSPGSRLYDYTTQDGAAWRVSALKEVSYDVVVQPRLLDPANPALADALSSGTTPARRLIVIDATVRSLYGEQLAAYLAGHDVEFHLCVIDAHESAKVMETVFEVVDAMDAFGVPRRHAPVLAMGGGVLTDIVGLAASLYRRATPYVRIPTTLIGMIDAGIGAKTGVNFREHKNRLGTYHPSSLTLIDPGFLATLDARHLRNGLAEILKVALVKDAELFDLLEGHGASLVEQRMQPGEGGTGGAALTVLRRAVQGMLEELQPNLWEHQLRRLVDFGHSFSPSVEMAALPELLHGEAVCIDMALSSVLAHHRGLLTEAELGRVLDVMRLLHLPVLHPVCTPDLMRAALADTVKHRDGWQHMPLPRGIGDAVFVNDVTQREIEAALLTLAERDRVPRWRALHGAVDMGV
# B4: aspC A106G/A218G/F210I/I29V/I33V/I68L/I71L/N30D/N64T/S135A/T100S/V136I/V375I (Escherichia coli, UniProt P00509); chain MFENITAAPADPILGLADLFRADERPGKVDLGVGVYKDETGKTPVLTSVKKAEQYLLENETTKTYLGLDGLPEFGRCTQELLFGKGSALINDKRARTAQSPGGTGGLRVAADFLAKNTSVKRVWVSNPSWPNHKAIFNSAGLEVREYAYYDAENHTLDFDALINSLNEAQAGDVVLFHGCCHNPTGIDPTLEQWQTLAQLSVEKGWLPLIDFAYQGFGRGLEEDAEGLRAFAAMHKELIVASSYSKNFGLYNERVGACTLVAADSETVDRAFSQMKAAIRANYSNPPAHGASVVATILSNDALRAIWEQELTDMRQRIQRMRQLFVNTLQEKGANRDFSFIIKQNGMFSFSGLTKEQVLRLREEFGVYAVASGRINVAGMTPDNMAPLCEAIVAVL
# B5: UGT1A1 (Homo sapiens, UniProt P22309); chain HAGKILLIPVDGSHWLSMLGAIQQLQQRGHEIVVLAPDASLYIRDGAFYTLKTYPVPFQREDVKESFVSLGHNVFENDSFLQRVIKTYKKIKKDSAMLLSGCSHLLHNKELMASLAESSFDVMLTDPFLPCSPIVAQYLSLPTVFFLHALPCSLEFEATQCPNPFSYVPRPLSSHSDHMTFLQRVKNMLIAFSQNFLCDVVYSPYATLASEFLQREVTVQDLLSSASVWLFRSDFVKDYPRPIMPNMVFVGGINCLHQNPLSQEFEAYINASGEHGIVVFSLGSMVSEIPEKKAMAIADALGKIPQTVLWRYTGTRPSNLANNTILVKWLPQNDLLGHPMTRAFITHAGSHGVYESICNGVPMVMMPLFGDQMDNAKRMETKGAGVTLNVLEMTSEDLENALKAVINDKSYKENIMRLSSLHKDRPVEPLDLAVFWVEFVMRHKGAPHLRPAAHDLTWYQYHSLDVIGFLLAVVLTVAFITFKCCAYGYRKCLGKKGRVKKAHKSKTH
# B6: enzyme (Bacillus licheniformis, UniProt Q65NC0); chain KSSVVSAWDMLWRSHREAKRLLLFAMPVRAGKDAGLKINSEQTMKEEKPPSYKTPQKIGLLLGPALFFAVLLFFFPEGLSYEGRMVLATTLWVAVWWITEAVPIPAASLLPIVLLPLTGALEGAAVTSSYGDPIVFLFLGGFLIALAMERWNLHKRIALNIISVVGTSTSRIVLGFMAATGFLSMWVSNTAAVMMMLPIGTAIIHQVSAVIKSERKDLAAEEAKFSKALIFSIGYAGTIGGLGTLIGTPPNIILAANIKKLYGVEVSFGGWMAFAVPVVVILLVAVWLYLTKVAHPIKMKELPGGKELILEEKRKLGKMSFEETMVLLVFGFAAFMWVTRTFLWDDKIPGIDDTMIAIFAASLLFLIPSLNKGGRVLDWSVSKDLPWGILLLFGGGLALATGFKETGLAEWIGGRLTVLDGFNFVVIVIISTALVLFLTEITSNTATATMILPVLASLALALNVHPYALMVPAAMAANCAFMLPVGTPPNAIIFASGKLKISEMVRTGFVINIFTLILIVGAVFYILPHLWGVDLTVFPDNLKSN
# Chain of UniProt Q9C969 (whole entry, looked up): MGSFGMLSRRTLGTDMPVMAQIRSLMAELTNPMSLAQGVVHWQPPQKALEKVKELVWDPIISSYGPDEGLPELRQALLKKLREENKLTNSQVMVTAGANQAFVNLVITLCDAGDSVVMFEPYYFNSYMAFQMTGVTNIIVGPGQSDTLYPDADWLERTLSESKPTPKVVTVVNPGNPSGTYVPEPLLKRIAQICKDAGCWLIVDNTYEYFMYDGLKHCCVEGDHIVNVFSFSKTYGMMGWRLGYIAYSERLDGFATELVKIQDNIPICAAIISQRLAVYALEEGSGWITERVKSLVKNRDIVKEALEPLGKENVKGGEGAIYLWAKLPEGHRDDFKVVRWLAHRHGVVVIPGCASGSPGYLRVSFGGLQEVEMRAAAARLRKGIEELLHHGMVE
# Chain of UniProt P77488 (whole entry, looked up): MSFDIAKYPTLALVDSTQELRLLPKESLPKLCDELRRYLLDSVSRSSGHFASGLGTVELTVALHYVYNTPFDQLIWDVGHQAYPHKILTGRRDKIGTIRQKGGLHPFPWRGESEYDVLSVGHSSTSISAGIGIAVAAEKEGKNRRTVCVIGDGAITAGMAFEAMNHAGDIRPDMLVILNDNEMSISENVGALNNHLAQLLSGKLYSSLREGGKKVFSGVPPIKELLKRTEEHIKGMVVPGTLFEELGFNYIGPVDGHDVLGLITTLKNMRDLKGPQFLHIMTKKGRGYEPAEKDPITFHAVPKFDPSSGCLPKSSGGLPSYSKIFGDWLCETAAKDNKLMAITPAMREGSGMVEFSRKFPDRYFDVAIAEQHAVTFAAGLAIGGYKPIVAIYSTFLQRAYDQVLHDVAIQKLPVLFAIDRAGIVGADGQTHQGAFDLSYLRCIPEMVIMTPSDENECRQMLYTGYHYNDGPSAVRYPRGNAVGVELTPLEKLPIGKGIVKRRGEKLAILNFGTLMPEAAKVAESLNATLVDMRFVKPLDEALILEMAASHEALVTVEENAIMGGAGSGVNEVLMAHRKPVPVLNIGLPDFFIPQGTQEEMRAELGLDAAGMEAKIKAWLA
Substance,target or system,assay,test system,setting,how to read,endpoint,result
GSGAGSETKM,human MAGI1-2/6 PDZ construct (MBP fusion),automated holdup,"peptide, crude extract","concentration not given, uncorrected, unit not given","relative to: biotin control resin, higher = stronger binding",binding intensity,-0.00349
CYP2J2 L2A (Homo sapiens),CCCCC/C=C\C/C=C\C/C=C\C/C=C\CCCC(=O)O,steady-state kinetics,,,,Km,131 µM
B1 (SCO6712 S292F),CCn1c(=NN=c2sc3cc(S(=O)(=O)O)ccc3n2CC)sc2cc(S(=O)(=O)O)ccc21,steady-state kinetics,,"pH 7, 37 °C, NaCl 150 mM, added: O2 cosubstrate",,Km,1700 µM
NRVDSKETEC,human MAGI1-2/6 PDZ construct (MBP fusion),automated holdup,"peptide, crude extract","concentration not given, corrected by standard peak, unit not given","relative to: biotin control resin, higher = stronger binding",binding intensity,-0.133
B2 (enzyme E64A),N[C@H](COP(=O)(O)O)Cc1c[nH]cn1,steady-state kinetics,,"pH 7.8, 25 °C",,Km,63 µM
B3 (valA),O=C(CO)[C@@H](O)[C@H](O)[C@H](O)[C@H](O)COP(=O)(O)O,steady-state kinetics,,"pH 7.5, 28 °C",,Km,49 µM
ACEEQNPWARYLEWLFPTETLLLEL,,ex vivo fluorescence imaging,"peptide, BALB/c mice, 4T1 tumour-bearing","intravenous, 5 nmol, 4 h post-injection, background-corrected mean fluorescence",relative to: tumour over muscle,contrast index,5.5 ± 0.8
"dxs (Escherichia coli, UniProt P77488)",O=C[C@H](O)COP(=O)(O)O,steady-state kinetics,,"pH 8, 37 °C",,Km,42 µM
B4,N[C@@H](CC(=O)O)C(=O)O,steady-state kinetics,,"pH 7.5, 25 °C, added: PLP 20 µM",,Km,1200 µM
SEC11A,,co-immunoprecipitation,human RBC cytosol,"DSSO crosslinker, unit not given, added: Band 3 peptide 1-56 bait",relative to: negative control,co-IP enrichment,1.19
B5 (UGT1A1),O=c1c(O)c(-c2ccc(O)c(O)c2)oc2cc(O)ccc12,steady-state kinetics,,"pH 7.4, 37 °C, not purified",,Km,3.4 µM
"enzyme (Bacteroides ovatus, UniProt A0AAN3A6N4)",O=[N+]([O-])c1ccc(O[C@H]2O[C@H](CO)[C@@H](O)[C@H](O)[C@H]2O)cc1,steady-state kinetics,,pH 6.6,,Km,78 µM
B6 (enzyme),O=C(O)C[C@H](O)C(=O)O,steady-state kinetics,,"pH 7, room temperature, apparent, not purified, added: Na+ 5 mM",,Km,7.1 µM
"enzyme (Arabidopsis thaliana, UniProt Q9C969)",O=C(O)C(=O)Cc1c[nH]c2ccccc12,steady-state kinetics,,,,Km,710 µM and 402 µM
